Measurements pooled from the literature.
Numbered parts are unrelated; each lists some results of a single study. Substitutions count along the parent as printed.

Block 1
Target: CCND1, cyclin fold, Cln2 fusion (human)
Technique: yeast growth competition, sequencing
Sample: yeast
Notes: strong parent motif
Baseline: not given
Reading: higher = stronger binding
Endpoint: normalised enrichment score
Starting sequence: RBL2 docking peptide (human); STTRRRLFVENDS
N11P: 1.5
T2A: 0.775
R5C: 0.665
T3D: 0.267
E10A: -0.00806
S1I: 0.214
R6Y: -0.225

Block 2
Target: RNA binding protein fox-1 homolog 2, RRM domain, GST-SBP tag (RBFOX2, Homo sapiens, UniProt O43251-10, residues 100-194)
Technique: RNA Bind-n-Seq
Form: RNA
Sample: in vitro
Concentration: 365 nM
Notes: natural RNA segment, single round, ends assumed
Baseline: no-protein control
Reading: higher = stronger binding
Endpoint: RBNS enrichment (R)
Constant ends, left off below: GGGAGUUCUACAGUCCGACGAUC … UGGAAUUCUCGGGUGCCAA
Residues (chain): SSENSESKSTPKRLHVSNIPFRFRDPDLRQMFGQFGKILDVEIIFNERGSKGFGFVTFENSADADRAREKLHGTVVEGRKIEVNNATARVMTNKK
GGACACGUGUUGUACAUAAGCCUCUGCAGUGUCCUCUUGUUAAUGGUGGGGUUUUCUGCUUUGUUUUUAUUUAAGAAAAUAAACACGACAUAUUUAAAGAAGGUUCUUUC: 0.748
UUUAAUCAAAAUUCAUAGUUGGAUCAGCCAUUGCCUUGUACAGGUUUAUUUUUUCCCCACAGACGCACACACCAACACAUUUAUAUUCAUUGCUUCCUCCCACUUUGUGC: 2.42
AUACAGAUGUUUGGUUUGGCCAGCUGACAAGGAAGCAGUCCAUAGAAGAGAUGGGCUCAGCCUGAACUAGUUGUCUGUGAAAAGACUCCUAACGUUGCGUUAACAUAUUU: 0.626
UCCAGAUUGAUUACUCAAGCAGACAGCACACGAAAUACUAUUUUUCUCCUAAUAUGCUGUUUCCAUUAUGACACAGCAGCUCCUUUGUAAGUACCAGGUCAUGUCCAUCC: 0.609
GGGUAACAGCUGAAACAAACGGAAGUUUUUGUACCAAAGUGGCCGGAGGUGGGGAAGAACUACUUUCGAGAAUUGUUACGGAGGCAGGUUGAGGGGACACUUUGACCCUC: 0.426
AGUUAACCCUUUACUUUUCCUUCCAUGUGUAUUUUCUUAUAUACUGUGAAUGUGAAAACCUAACUGGUACACUUGAUCUUGUGUUCAUAUGAAAGUGCAAGUCUUUAUUA: 0.356
AUUGGAAAUUCAGAAGUUAAUGUUUUUUUGUAAGCACAAAAGAAGUAUUAUAGAAAUUUAUCCUAGCAAGACUUUACAAGAUAGGAUCAAAUUCUAAUGGAAUUGAGCCG: 0.519

Block 3
Target: Interferon regulatory factor 7, full length, phosphomimetic (IRF7, Homo sapiens, UniProt Q92985, residues 1-503, S471D/S472D/S475D/S476D/S477D/S483D/S484D/S487D)
Sequence of UniProt Q92985 (whole entry, unmodified, looked up): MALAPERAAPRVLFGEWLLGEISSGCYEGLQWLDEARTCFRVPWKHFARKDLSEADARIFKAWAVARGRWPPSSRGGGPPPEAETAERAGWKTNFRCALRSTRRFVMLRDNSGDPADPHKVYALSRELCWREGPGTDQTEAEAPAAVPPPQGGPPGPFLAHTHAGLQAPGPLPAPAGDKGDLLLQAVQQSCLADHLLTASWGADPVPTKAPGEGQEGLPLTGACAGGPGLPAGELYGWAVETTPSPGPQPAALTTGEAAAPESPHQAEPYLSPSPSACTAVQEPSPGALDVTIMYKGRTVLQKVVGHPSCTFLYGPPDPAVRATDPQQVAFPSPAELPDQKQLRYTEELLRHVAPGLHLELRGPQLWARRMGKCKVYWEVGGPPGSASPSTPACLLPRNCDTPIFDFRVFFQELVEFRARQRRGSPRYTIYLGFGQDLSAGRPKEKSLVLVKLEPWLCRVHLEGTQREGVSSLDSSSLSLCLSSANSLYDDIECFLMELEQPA
Technique: protein-binding microarray
Form: double-stranded DNA, one strand shown
Sample: in vitro
Concentration: 2200 nM top
Notes: 60-bp whole probe
Together with: salmon DNA 0.4 mg/ml
Baseline: random background probes
Reading: higher = stronger binding
Endpoint: fitted relative affinity
Constant ends, left off below: GCCTAGCAC … GTCTTGATTCGCTTGACGCTGCTG
TCACCTCTAACTTTCCAACTGTGCTAG: 2.16 z-score
TTTACTTTCTATGTCTGTTTGTGCTAG: 5.49 z-score
TTAGGACTGGGAGTGGGTTAGTGCTAG: -0.786 z-score
TACGATATCGGGACTGGAGACGTGCTA: 0.233 z-score
GTAGGTATCGGGTTTCGGTTAGTGCTA: 3.7 z-score
TTAAATTTCAGTCTCGATTAGTGCTAG: 0.598 z-score
GACGGTTTCGGGTTCCGGGACGTGCTA: 10.3 z-score
GAAGAACTGGGGACTGGAGACGTGCTA: -0.421 z-score
GACGATATTAGTTTCGAGACGTGCTAG: 3.95 z-score
TTAGGACTGATTTTCCTTTAGTGCTAG: 1.16 z-score

Mixed results
PhoQ, residues 284 288 289 292 302 303 TNASYF  fold induction (PhoP, residues 12 14 15 18 19 LYFRQ (Escherichia coli, UniProt P23836); Sort-seq, item: YFP reporter; E. coli; PhoQ-PhoP variant library, together with: 10 µM Mg2+; baseline: high Mg2+ state, higher = stronger signaling): 14.2

Excerpt of the above (block 3):
TTAGGACTGGGAGTGGGTTAGTGCTAG: -0.786 z-score
